# Published values from different studies.
# Numbered parts are unrelated; each lists some results of a single study.
# Sequence of UniProt P51617 (whole entry, looked up): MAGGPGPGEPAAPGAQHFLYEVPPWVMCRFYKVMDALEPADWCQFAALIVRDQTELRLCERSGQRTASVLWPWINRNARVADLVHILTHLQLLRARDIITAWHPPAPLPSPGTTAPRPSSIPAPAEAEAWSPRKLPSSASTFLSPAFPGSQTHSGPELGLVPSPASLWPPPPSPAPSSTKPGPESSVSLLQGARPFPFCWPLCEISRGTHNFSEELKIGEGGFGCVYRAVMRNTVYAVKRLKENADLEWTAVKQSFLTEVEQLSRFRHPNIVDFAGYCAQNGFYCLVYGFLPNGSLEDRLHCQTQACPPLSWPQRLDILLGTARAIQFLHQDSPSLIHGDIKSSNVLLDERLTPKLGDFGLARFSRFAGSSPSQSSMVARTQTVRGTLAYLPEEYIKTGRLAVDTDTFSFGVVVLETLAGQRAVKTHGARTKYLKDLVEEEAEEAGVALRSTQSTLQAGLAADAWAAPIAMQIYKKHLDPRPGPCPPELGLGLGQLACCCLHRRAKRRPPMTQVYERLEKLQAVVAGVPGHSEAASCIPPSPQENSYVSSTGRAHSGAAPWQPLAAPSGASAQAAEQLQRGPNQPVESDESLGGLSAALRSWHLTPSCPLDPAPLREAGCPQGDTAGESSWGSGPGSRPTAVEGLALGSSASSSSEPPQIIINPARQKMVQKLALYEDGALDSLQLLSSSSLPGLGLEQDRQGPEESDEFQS
# Sequence of UniProt Q9Y6R4 (whole entry, looked up): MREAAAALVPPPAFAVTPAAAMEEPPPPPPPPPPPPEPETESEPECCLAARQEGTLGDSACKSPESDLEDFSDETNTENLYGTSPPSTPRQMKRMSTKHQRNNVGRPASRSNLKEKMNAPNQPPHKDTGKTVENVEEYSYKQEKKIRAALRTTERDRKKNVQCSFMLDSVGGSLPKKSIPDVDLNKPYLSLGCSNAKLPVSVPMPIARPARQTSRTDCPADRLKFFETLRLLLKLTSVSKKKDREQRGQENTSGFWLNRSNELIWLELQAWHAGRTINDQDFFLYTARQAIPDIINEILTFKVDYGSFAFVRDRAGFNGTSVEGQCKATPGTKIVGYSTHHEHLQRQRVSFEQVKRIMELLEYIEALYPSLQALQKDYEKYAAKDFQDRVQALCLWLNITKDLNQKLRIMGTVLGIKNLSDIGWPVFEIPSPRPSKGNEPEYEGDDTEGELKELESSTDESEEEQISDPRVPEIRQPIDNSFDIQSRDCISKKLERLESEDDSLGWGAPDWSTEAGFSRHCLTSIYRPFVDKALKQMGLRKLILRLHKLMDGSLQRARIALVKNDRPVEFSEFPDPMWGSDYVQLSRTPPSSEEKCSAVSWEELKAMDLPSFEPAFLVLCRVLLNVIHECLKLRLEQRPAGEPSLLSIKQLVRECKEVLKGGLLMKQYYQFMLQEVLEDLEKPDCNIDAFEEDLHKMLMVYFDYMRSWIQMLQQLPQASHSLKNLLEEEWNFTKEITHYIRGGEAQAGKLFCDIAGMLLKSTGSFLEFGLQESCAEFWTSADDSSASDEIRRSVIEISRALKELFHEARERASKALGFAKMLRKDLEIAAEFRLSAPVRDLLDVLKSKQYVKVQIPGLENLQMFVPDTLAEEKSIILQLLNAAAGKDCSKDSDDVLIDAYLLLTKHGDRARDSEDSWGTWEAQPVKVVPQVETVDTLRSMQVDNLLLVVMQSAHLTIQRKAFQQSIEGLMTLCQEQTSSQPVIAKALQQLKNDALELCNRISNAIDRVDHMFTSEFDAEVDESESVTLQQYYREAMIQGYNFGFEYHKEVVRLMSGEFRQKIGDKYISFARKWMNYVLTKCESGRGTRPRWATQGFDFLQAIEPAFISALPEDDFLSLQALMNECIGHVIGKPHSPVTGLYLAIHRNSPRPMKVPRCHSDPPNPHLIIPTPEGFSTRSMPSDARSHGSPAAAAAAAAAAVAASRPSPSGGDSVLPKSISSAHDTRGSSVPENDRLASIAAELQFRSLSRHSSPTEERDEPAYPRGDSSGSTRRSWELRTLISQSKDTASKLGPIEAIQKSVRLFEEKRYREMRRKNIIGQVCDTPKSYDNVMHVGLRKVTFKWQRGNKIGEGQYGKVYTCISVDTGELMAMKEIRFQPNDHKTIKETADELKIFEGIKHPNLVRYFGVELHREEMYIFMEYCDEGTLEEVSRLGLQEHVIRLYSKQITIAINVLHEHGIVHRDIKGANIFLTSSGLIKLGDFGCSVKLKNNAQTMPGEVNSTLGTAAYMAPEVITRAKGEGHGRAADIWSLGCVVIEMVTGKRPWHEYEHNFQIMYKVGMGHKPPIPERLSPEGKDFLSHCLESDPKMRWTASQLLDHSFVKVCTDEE

# Study 1
# Cell line: UACC-903 melanoma
Structure (SMILES),IC50
c1cc(CN2CCCCC2)cc(OCCCNc2nc3ccccc3s2)c1,33.3 µM
CN1CCN(CCCN2c3ccccc3Sc3ccc(C(F)(F)F)cc32)CC1,10.2 µM
CN(C)CCC=C1c2ccccc2C=Cc2ccccc21,22.7 µM
CN(C)CCCN1c2ccccc2Sc2ccccc21,28.6 µM
COCC(=O)O[C@]1(CCN(C)CCCc2nc3ccccc3[nH]2)CCc2cc(F)ccc2[C@@H]1C(C)C,5.2 µM
CCCCCCCCNC(C)C(O)c1ccc(SC(C)C)cc1 (centres unmarked),6.5 µM
CN(C)CCC=C1c2ccccc2CCc2ccccc21,27.3 µM
CCN(CC)CCCC(C)Nc1c2ccc(Cl)cc2nc2ccc(OC)cc12 (centres unmarked),2.6 µM
CCOC(=O)C1=C(COCCN)NC(C)=C(C(=O)OC)C1c1ccccc1Cl (centres unmarked),11.9 µM

# Study 2
# SMILES: CNCc1ccccc1-c1csc([C@H](C)Nc2nc(C)nc3cc(OC)c(OC)cc23)c1
# Observed: cell-free assay
# Technique: competition with immobilised ligand
# Tested at: 1 µM
target,remaining binding
"Interleukin-1 receptor-associated kinase 1 (IRAK1, Homo sapiens, UniProt P51617)",80%
"1-phosphatidylinositol 3-phosphate 5-kinase (PIKFYVE, Homo sapiens, UniProt Q9Y2I7)",100%
"Protein-tyrosine kinase 2-beta (PTK2B, Homo sapiens, UniProt Q14289)",100%
"Serine/threonine-protein kinase D1 (PRKD1, Homo sapiens, UniProt Q15139)",100%
"Mast/stem cell growth factor receptor Kit (KIT, Homo sapiens, UniProt P10721, V559D)",100%
"Myosin-IIIa (MYO3A, Homo sapiens, UniProt Q8NEV4)",100%
"Mitogen-activated protein kinase kinase kinase 20 (MAP3K20, Homo sapiens, UniProt Q9NYL2)",100%
"Serine/threonine-protein kinase MARK2 (MARK2, Homo sapiens, UniProt Q7KZI7)",100%
"Homeodomain-interacting protein kinase 1 (HIPK1, Homo sapiens, UniProt Q86Z02)",79%
"Tyrosine-protein kinase JAK1, JH1 (JAK1, Homo sapiens, UniProt P23458)",89%
"Serine/threonine-protein kinase 32B (STK32B, Homo sapiens, UniProt Q9NY57)",100%
"Tyrosine-protein kinase ABL2 (ABL2, Homo sapiens, UniProt P42684)",100%
"Mitogen-activated protein kinase kinase kinase 4 (MAP3K4, Homo sapiens, UniProt Q9Y6R4)",100%
"Receptor-type tyrosine-protein kinase FLT3 (FLT3, Homo sapiens, UniProt P36888)",100%

# Study 3
# Target: DNA polymerase theta, ATPase domain (POLQ, Homo sapiens, UniProt O75417)
# Sequence of UniProt O75417 (whole entry, unmodified, looked up): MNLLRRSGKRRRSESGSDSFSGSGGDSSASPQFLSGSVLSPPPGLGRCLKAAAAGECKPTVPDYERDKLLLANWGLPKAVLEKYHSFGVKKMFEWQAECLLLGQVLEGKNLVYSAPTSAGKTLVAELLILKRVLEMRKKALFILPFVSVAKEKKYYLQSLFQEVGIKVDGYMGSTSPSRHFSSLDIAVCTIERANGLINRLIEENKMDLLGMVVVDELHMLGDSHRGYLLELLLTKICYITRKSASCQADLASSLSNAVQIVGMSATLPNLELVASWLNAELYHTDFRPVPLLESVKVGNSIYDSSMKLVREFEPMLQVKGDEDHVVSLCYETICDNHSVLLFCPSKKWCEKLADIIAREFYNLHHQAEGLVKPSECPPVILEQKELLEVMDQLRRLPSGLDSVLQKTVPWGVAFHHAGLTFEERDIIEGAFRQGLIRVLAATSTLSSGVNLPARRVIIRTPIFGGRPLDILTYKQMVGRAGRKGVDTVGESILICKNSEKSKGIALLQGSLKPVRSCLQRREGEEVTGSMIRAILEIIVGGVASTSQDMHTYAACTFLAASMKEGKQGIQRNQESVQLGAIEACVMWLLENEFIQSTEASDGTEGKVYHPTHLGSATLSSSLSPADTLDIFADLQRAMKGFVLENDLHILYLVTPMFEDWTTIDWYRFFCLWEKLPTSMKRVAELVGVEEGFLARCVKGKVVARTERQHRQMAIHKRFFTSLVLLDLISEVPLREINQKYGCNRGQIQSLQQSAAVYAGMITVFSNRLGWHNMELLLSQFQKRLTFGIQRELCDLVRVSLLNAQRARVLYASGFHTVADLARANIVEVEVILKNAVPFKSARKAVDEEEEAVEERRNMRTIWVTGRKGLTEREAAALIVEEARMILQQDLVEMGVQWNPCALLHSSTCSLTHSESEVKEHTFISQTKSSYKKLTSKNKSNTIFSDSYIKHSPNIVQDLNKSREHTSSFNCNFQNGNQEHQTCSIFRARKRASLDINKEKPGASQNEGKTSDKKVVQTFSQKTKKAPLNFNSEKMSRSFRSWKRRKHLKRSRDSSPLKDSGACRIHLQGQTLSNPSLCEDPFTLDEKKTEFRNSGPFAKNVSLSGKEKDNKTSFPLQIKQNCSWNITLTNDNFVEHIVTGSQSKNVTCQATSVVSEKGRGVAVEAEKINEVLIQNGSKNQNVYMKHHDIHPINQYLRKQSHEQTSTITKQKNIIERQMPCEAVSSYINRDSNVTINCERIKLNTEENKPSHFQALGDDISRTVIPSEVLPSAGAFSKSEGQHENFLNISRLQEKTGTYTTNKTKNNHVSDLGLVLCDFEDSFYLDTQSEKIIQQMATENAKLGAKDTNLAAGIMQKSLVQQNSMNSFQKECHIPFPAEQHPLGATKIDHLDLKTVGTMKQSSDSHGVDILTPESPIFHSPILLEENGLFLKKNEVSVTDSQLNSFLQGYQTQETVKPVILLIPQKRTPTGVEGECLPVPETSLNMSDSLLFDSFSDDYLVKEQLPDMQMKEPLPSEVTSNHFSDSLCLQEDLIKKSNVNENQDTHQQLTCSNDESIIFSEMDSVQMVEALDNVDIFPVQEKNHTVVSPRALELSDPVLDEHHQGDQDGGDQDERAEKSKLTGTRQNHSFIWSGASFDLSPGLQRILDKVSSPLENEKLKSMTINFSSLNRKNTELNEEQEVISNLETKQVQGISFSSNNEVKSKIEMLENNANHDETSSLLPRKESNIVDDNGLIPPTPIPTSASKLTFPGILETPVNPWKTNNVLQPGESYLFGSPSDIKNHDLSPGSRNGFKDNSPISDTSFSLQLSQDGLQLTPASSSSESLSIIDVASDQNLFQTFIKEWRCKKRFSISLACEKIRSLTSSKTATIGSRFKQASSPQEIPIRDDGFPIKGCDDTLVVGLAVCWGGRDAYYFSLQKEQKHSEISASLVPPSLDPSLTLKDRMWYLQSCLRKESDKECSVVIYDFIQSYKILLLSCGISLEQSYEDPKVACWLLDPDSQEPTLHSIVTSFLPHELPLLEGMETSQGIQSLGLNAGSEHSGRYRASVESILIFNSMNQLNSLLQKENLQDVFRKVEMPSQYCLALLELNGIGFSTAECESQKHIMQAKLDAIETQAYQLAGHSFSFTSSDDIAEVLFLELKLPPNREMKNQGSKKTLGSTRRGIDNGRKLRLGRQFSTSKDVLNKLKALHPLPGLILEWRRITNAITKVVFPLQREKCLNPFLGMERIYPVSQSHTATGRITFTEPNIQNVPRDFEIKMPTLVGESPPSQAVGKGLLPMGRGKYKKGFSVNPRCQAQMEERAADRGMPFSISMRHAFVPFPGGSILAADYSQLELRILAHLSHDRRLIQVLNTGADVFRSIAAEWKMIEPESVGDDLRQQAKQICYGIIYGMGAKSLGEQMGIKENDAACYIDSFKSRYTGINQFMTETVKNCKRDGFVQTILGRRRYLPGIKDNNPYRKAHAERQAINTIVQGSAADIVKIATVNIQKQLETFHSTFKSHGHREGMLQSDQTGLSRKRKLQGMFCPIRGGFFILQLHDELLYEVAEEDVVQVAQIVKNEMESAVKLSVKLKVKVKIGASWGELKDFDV
# Observed: enzyme activity
# Action: inhibitor
# Tested at: 77 µM
Compound,remaining activity
Nc1ncnc2nc(-c3ccc(N4CCOCC4)nc3)cc(-c3cccc(Br)c3)c12,81%
Cc1c(F)cc(C(=O)NC2CC2)cc1-c1ccc(C(=O)NCC(C)(C)C)cn1,103%
CNCC[C@H](Oc1ccc(C(F)(F)F)cc1)c1ccccc1,93.5%
CC[C@H](CO)Nc1nc(NCc2ccccc2)c2ncn(C(C)C)c2n1,102%
CC(C)NC[C@H](O)COc1cccc2ccccc12,101%
Cc1ccc(C(=O)N(CCCN)[C@@H](c2nc3cc(Cl)ccc3c(=O)n2Cc2ccccc2)C(C)C)cc1,75.7%

# Study 4
# Host: human
# Sample: microsomes or S9
# Tested at: 2 µM
# Time: 0.5 h
Compound,remaining compound
O=c1[nH]c2ncccc2n1Cc1nnc2ccc(-c3cccc(F)c3)nn12,> 99%
CCC1(O)CCOC2(CCN(C(=O)c3cc(Cl)ccc3F)CC2)C1 (centres unmarked),73.2%
Cc1ccc(-c2nc(C(=O)N=C(N)N)c(C)[nH]2)cc1,67%
C[C@H](Nc1ccnc2c1NC(=O)CN2)c1cc2cccc(Cl)c2c(=O)n1-c1ccccc1,75.7%
O=S1(=O)CCN(CC2CCCO2)c2c(Oc3ccc(F)cc3)nc(F)c(Cl)c21 (centres unmarked),61.1%
CCCc1nnsc1C(=O)NC1CC(=O)N(C2CC2)C1 (centres unmarked),71.6%

# A few entries again (study 2):
target,remaining binding
"Receptor-type tyrosine-protein kinase FLT3 (FLT3, Homo sapiens, UniProt P36888)",100%
"Tyrosine-protein kinase ABL2 (ABL2, Homo sapiens, UniProt P42684)",100%
